Results gathered from unrelated publications.
A part holds a random share of what one study measured. Changes are numbered by the printed parent chain.

Series 1 — technique: universal PBM; molecule type: double-stranded DNA, one strand shown; medium: in vitro; concentration: not given; reading: higher = stronger binding
Target: Sal-like protein 4, full length isoform B (SALL4, Homo sapiens, UniProt Q9UJQ4-2, residues 1-616)
Setting: 8-mer, flanks averaged, mean of replicates
Residues (chain): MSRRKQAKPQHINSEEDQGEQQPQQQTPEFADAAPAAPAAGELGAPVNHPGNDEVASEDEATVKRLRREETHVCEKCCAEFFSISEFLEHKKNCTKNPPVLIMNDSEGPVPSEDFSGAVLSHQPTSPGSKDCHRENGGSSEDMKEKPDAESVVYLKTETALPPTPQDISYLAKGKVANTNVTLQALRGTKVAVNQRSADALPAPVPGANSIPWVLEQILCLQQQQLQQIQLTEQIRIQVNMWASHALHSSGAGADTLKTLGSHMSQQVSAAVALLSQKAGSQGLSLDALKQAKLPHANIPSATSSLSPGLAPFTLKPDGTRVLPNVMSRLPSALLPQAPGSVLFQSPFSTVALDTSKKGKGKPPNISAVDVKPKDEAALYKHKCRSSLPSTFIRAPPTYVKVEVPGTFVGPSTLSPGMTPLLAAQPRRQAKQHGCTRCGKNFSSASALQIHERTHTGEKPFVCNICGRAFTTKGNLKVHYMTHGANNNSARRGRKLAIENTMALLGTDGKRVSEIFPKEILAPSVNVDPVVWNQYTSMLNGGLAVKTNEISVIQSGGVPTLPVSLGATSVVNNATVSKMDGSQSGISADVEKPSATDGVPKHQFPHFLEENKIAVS
With `CCGCACAA` the E-score was 0.0228.
The E-score of `AGTCGGAC` is reported as -0.189.
`GAAGCAAC` has an E-score of -0.00357.
`ACGAGGAC` has an E-score of -0.174.
`ACGACCTG` has an E-score of -0.138.
With `ACGGCTGC` the E-score was -0.341.
`CCAACCAG` gave an E-score of -0.253.
For `CGAGCGCG`, the E-score was -0.224.
`AGGCCATG` gave an E-score of -0.202.
`AACCCAAT` gave an E-score of 0.11.
With `ACTGGACT` the E-score was 0.0269.
With `GCACTCAA` the E-score was -0.207.

Series 2 — technique: DHFR PCA, deep sequencing; medium: yeast; added: (+)-ABA 2500 µM; relative to: wild-type fitted maximum; reading: higher = stronger binding
Target: ABI1, truncated, D143A, DHFR fusion (Arabidopsis thaliana)
Setting: methotrexate growth selection, single substitutions
Starting sequence: PYL1, truncated, DHFR fusion (Arabidopsis thaliana); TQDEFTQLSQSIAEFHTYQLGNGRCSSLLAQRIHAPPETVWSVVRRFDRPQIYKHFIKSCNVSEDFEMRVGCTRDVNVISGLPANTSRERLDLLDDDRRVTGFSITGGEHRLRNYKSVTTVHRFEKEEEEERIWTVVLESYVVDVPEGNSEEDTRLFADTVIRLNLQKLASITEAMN
`T17N`: “relative binding score” 92.3%.
Under “relative binding score”, `I133L` is recorded as 103%.
Under “relative binding score”, `M176Q` is recorded as 94%.
`V62E`: “relative binding score” 62.2%.
`G81T`: “relative binding score” 79.5%.
Under “relative binding score”, `R113Y` is recorded as 98.5%.
Under “relative binding score”, `R88W` is recorded as 92.8%.
`P146D`: “relative binding score” 66.8%.

Series 3 — technique: protein-binding microarray; molecule type: double-stranded DNA, one strand shown; medium: in vitro; concentration: 2200 nM top; setting: 60-bp whole probe; added: salmon DNA 0.4 mg/ml; relative to: random background probes; reading: higher = stronger binding; constant ends, left off below: GCCTAGCAC … GTCTTGATTCGCTTGACGCTGCTG
Target: Interferon regulatory factor 7, full length, phosphomimetic (IRF7, Homo sapiens, UniProt Q92985, residues 1-503, S471D/S472D/S475D/S476D/S477D/S483D/S484D/S487D)
Target sequence (chain): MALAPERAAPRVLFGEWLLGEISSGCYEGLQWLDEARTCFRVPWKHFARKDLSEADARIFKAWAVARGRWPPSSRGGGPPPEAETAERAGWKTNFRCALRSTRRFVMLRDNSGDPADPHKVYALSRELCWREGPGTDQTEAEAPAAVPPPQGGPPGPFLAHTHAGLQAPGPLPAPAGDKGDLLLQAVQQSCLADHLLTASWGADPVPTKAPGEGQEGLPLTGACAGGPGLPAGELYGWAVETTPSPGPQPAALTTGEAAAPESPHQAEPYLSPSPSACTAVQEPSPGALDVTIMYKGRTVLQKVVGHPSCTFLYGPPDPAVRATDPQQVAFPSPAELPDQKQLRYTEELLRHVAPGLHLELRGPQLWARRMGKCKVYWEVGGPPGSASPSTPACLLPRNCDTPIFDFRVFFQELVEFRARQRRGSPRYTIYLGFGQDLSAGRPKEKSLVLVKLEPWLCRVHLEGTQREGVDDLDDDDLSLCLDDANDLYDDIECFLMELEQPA
Under “fitted relative affinity”, `TTAGGTATCCTTTTCCTGTAGTGCTAG` is recorded as 1.45 z-score.
`AAAGATATAAATGTAACATGGTGCTAG`: “fitted relative affinity” -0.912 z-score.
For `TTAGGTTTCGTTCTCGGTTAGTGCTAG`, “fitted relative affinity” read 6.79 z-score.
Under “fitted relative affinity”, `GACGGTATCCTTTTCCTCACGTGCTAG` is recorded as 1.51 z-score.
`AAAAATTAGTGTTTCCCCTAGTGCTAG` — result for “fitted relative affinity”: 0.0219 z-score.
`ATCTGCAGCTGACTACACACGTGCTAG`: “fitted relative affinity” 0.766 z-score.
`TTAGGTTCCGGTTTCGGTTGGTGCTAG`: “fitted relative affinity” 10.3 z-score.
`GACAATTTCAGTATCGAGACGTGCTAG`: “fitted relative affinity” 0.789 z-score.
`GACGGTATCGACTTTCGGGACGTGCTA` — result for “fitted relative affinity”: 3.13 z-score.
`GACGGTTTCGGGACTGTGGACGTGCTA`: “fitted relative affinity” 3.9 z-score.
For `TCATGTTTTCATTTTATACTGTGCTAG`, “fitted relative affinity” read 4.37 z-score.

Mixed results
`PhoQ, residues 284 288 289 292 302 303 ASVMEA` gave a fold induction of 0.521 (PhoP, residues 12 14 15 18 19 NIMAP (Escherichia coli, UniProt P23836); Sort-seq, refers to: YFP reporter; E. coli; PhoQ-PhoP variant library, added: 10 µM Mg2+; relative to: high Mg2+ state, higher = stronger signaling).

A few entries again (series 1):
For `CGAGCGCG`, the E-score was -0.224.
`ACGAGGAC` has an E-score of -0.174.
With `CCGCACAA` the E-score was 0.0228.
`CCAACCAG` gave an E-score of -0.253.
